Results pooled from the literature.
Parts stem from different laboratories: compare values within a part only. Positions count from the first letter of the parent shown.

Sample 1 — method: RNA Bind-n-Seq; molecule type: RNA; medium: in vitro; tested at: not given; relative to: input RNA pool; reading: higher = stronger binding
Target: RING finger protein unkempt homolog, zinc fingers 1-6, GST-SBP tag (UNK, Homo sapiens, UniProt Q9C0B0, residues 30-357)
Notes: RNA with constant flanks, human-mouse chimeric sites, ends assumed
Target sequence (chain): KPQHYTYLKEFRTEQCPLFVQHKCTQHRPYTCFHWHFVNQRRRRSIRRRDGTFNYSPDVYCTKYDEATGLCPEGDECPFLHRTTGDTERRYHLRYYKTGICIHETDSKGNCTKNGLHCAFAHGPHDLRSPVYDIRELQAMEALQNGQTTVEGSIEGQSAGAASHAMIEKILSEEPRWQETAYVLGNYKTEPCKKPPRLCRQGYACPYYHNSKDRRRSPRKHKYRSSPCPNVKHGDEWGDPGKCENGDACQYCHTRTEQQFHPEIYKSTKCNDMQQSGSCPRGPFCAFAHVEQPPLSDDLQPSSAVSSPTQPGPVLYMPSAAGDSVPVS
Strand	bound/input enrichment [ratio]
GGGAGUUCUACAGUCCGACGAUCCGCUUGGAUGAGGCGGGUGUCACAGAUGAAGUGCUGGAUUCUGCCAUGCAAGCCUUCCUUCUGGAGGUCAUUGUUAAACAUGGGGAGCCAGCCCCUUAUUUAUGUAACAAAGAUCCGUUUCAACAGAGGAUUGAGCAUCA	0.0811
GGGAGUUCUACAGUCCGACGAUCAACUUUGUGCAUCGGUUUCCUUUUGUAGCUGUUUCAAUUGGCUUCCUUGUGAAUAAAGAGAUGGAGUUUGGAAUUGUGUACAGCUGUGUGGAAGAUAAGAUGUACACCGGCAGGAAAGGGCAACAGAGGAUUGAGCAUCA	0.382
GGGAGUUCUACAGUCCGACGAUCGUAGCUGGCCAUUAGGAAAUGCUGGUAAUUUCAGUCACUUGCUGAUGACUUCUGAUGUCCCAGCAAAUGUUGGCAUUGUUGACUGCUGAGAAGAUACUUCUGAGGACAUACAGCAGUGGUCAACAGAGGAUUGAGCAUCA	0.497
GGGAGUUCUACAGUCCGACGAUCUCCCAAAUUAUAAGGCAAGAAGGAGCCUUGAGACAAACACUCCACACACAGGGAAGGCAAUAGCUUUGUACAUUGGUUUACAUUUUUUCCCCCUGUGGAUUUUUCUAGAGGUCAUAGUGCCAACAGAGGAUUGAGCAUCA	0.499
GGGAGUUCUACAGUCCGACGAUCGAGUCGAGCAAACUUGAAACUACAGAAUAUCUUGCAGCCUCAGUGUUCACUUGCUUGGCGAUAGCAUUGGGGUUUUAUAUAGAUUCUAAGGAGAACUGACGAUGAUGCUGCCGCUGCUGCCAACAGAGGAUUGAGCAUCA	0.235
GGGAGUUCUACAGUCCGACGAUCUAAAUUAGGGCUGCCGUUUUCUGUUUCUCCCUGGGCUGCGGAAAGCCAGAAGAUUUUAUCUAGUUUGAACCAGGCUGCUGGUGUUCCCUCUUUUUUUCCACGAGGGUGUUUUUGGCUGCACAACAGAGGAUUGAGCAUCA	0.891
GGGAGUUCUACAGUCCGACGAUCUAAAUUAGGGCUGCCGUUUUCUGUUUCGCCCUGAGCUGCGGAAAGCCAGAAGAUUUUAUCUAGCUUAUACAAGGCUGCUGGUGUUCCCUCCCUCCCGCCACGAGGGUGUUUUUGGCUGCACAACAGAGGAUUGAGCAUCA	0.532
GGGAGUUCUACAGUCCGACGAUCGGACAUCUUGUCAGGAUUUAUGUUCCUGUGAAACAAGUGAACACUCUGAUACACUUCAUUUAGUUGUACAUCUGUAUGAUAGAGAAAUGUAAAUAUGUUAAUCCAAGCAAUGUGUCACUUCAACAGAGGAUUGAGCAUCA	0.181

Sample 2 — target: CCNE2, cyclin fold, Cln2 fusion (human); method: yeast growth competition, sequencing; medium: yeast; notes: weak parent motif; relative to: not given; reading: higher = stronger binding
Starting sequence: CDC6 docking peptide (human); TLKGRRLVFDNQL
Substitution	normalised enrichment score
L2Y	1.46
Q12E	-0.199
D10L	0.423
T1N	-0.112
Q12S	-0.0611
R6Q	0.0352
F9C	-0.035
G4Y	-0.348
N11Q	0.219
L7K	1.33
K3F	0.0291
L2D	-0.639
L2A	-0.208
F9S	-0.137
N11M	0.154
L2Q	0.465
F9L	0.0724
T1Q	-0.0603
L7C	-0.0593
N11K	0.396
L13W	-0.0979
Q12A	0.649
L7H	0.172
G4T	-0.368
D10G	-0.474

Sample 3 — method: competition protein-binding microarray; molecule type: double-stranded DNA, one strand shown; medium: in vitro; tested at: 2 µM; together with: Pho4 competitor, 0.05 µM; reading: higher = stronger binding
Target: Centromere-binding protein 1, full length, His-tagged (CBF1, Saccharomyces cerevisiae, UniProt P17106, residues 1-351)
Sequence of UniProt P17106 (whole entry, looked up): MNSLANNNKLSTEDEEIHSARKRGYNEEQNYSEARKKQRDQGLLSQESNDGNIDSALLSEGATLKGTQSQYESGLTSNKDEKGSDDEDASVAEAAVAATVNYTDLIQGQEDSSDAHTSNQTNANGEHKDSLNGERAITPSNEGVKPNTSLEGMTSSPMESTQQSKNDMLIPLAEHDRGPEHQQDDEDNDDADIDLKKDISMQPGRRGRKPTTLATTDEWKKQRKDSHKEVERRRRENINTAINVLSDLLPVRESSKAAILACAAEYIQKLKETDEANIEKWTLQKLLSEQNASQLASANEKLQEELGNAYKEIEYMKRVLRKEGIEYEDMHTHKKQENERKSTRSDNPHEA
Notes: whole 60-bp probe, lowest competitor level
Strand	fluorescence intensity [a.u.]
CCCAATTTTTAAAAACACGTGCCGACCAGGATTGGGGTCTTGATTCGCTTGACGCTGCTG	2900
CTCAGTCTCTGGAAAAACGTGCTTTTTAACGGTTATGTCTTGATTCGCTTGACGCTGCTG	249
TAATAAAAATGTTACCACGTTATCAGGGTTTTCATGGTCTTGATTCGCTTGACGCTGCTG	237
TAATAACAATCTACCCACGTGGTGAAGCAACACCTAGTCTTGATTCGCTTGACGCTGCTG	1190
CGCAAATGGGCATTTGATGTGACGAAAAATTTGGACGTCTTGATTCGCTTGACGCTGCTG	85.4
CTTCTGTAAATTTGTTTAGTGGGTGGACGCGCCCCGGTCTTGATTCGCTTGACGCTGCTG	80.9
CTAACGAAGGTTTGTCACACTACTTACAAGCCAAGTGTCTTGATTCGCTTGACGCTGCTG	94
AATTGGAAAGGCCTTCACATGGTGATCCATCTTCTAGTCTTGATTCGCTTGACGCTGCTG	88.5
CTTCTGTAAATTTGCCTCGTGGGTGGACGCGCCCCGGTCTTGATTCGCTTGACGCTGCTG	96.6
GTAGCAGAGGTGGTTCCCGTGGAGGTTCCAGAGGTGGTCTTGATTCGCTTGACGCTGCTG	67.4
CTTAAAAGTCTGGAAGGCGTGCTAATTGTCCTTTTAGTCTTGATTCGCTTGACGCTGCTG	74.2
TCTGTTATTGCTGATCGCGTGGCCGTTAAATTGGTTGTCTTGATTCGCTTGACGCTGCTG	231
CTTTCCCGATCTTGCGGTGTGGGTGTAGCACATTTGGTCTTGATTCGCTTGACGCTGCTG	62.9

Sample 4 — method: RNA Bind-n-Seq; molecule type: RNA; medium: in vitro; tested at: 365 nM; relative to: no-protein control; reading: higher = stronger binding
Target: RNA binding protein fox-1 homolog 2, RRM domain, GST-SBP tag (RBFOX2, Homo sapiens, UniProt O43251-10, residues 100-194)
Notes: natural RNA segment, single round, ends assumed
Construct (chain): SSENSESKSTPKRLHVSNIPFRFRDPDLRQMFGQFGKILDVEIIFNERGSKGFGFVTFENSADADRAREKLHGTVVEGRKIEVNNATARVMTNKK
Strand	RBNS enrichment (R)
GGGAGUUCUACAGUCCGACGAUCGAGCCGCCCAGCGCUGGCCCUGCUGGGGACAGACAUGCCAUACAGGUACUUUGGGACCCCUGGGAGGGUCCUACGUCCAGCCUCCAUCUCGGUCCUCUGGCCCCUUCUCCUGGAAUUCUCGGGUGCCAA	0.433
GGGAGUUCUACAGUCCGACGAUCACCUCAGAUCAGUAUUGUGCAUUGUAGUCUACCUGCAUGUGAUCUAUGUUGACAUUUCGGGGAUAUUGUGUUCAAGAAUGAUUCCAAAUUUGAGCCACCAAAAUACACUGUGGAAUUCUCGGGUGCCAA	8.33
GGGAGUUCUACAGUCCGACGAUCCUGAGCAGCUAUGCAGGUUGACUGCCCACAGGCAUGUGGAAACUUGGUUCUCAGCACUUGGCAGGAUCUAUGGCAUAAGUGGAGAGGGAAGGUGUACUGGACGGCGGAGAUGGAAUUCUCGGGUGCCAA	1.53
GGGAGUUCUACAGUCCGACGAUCGAAGAUGGCUCAGGAAGCCACUGUCACGGUUCCUGGAGGCUGGGCCCUCUCAUUGACAUGUACACUACUCCUCGCUGCAGGGCACUGUUCCACCUGGAUCCAGUUGCAAAUGGAAUUCUCGGGUGCCAA	0.982
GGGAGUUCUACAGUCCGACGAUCCCCAAACCCCUUCCCACGACAAAAACAAGACUGCCUCCCUCUCUUCCGGGAGCUGGUGACAGCCUUGGGCCUUUCAGUCCCAAAGCGGCCGAUGGGAGUCUCCCUCCGACUGGAAUUCUCGGGUGCCAA	0.297
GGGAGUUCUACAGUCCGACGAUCUGCUGAGCCCUCGCAUCUGGGUGGCGGAAUUGCCUGCGGGGUUUUGCCCUUGGUUUACUGAGGGGGGUCUUGGUUGCUGCUGAAGCCCCCCACCCCUUCUAAAGUGCAAUUGGAAUUCUCGGGUGCCAA	3.17
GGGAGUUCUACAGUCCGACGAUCUUCUUCUCCCUUAGGGAGGCUCUUGAAGGAGCAGGAGGUACAGUACUGGGUAGCAGUCUGGCCCUCCUGUCGUCUGGUUGGUGUUGGGGCCUCCAGCCAGGGCCCUCUAGUGGAAUUCUCGGGUGCCAA	0.283
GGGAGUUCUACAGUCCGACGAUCCCCAUUGCUGGUAGACAAUUUUCAUCUCUGCUGGUGGUGGCCUCUUGUUGACUCUGAAACUUGUCACCUUGUCACCAGCUAGAUGUCAAGACUUGGCUGCCCUCUGAUGUUGGAAUUCUCGGGUGCCAA	0.372
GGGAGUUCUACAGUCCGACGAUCUUAUCUCAGCUUCUCCAUCACCCCCACUUGGAGCAACAGUGUCACAUCUCCACCCCACUUACCAAUAAAAGCUACCCUUUCCACCCAGUGGAAUGGGAUGGCAGAAAACCUGGAAUUCUCGGGUGCCAA	0.353

A few entries again (sample 3):
Strand	fluorescence intensity [a.u.]
CTTTCCCGATCTTGCGGTGTGGGTGTAGCACATTTGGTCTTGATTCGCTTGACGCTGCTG	62.9
CTTCTGTAAATTTGCCTCGTGGGTGGACGCGCCCCGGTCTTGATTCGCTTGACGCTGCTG	96.6
CTAACGAAGGTTTGTCACACTACTTACAAGCCAAGTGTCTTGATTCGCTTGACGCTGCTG	94
TAATAACAATCTACCCACGTGGTGAAGCAACACCTAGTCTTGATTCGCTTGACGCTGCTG	1190
